Published values from different studies.
Compare with care: the assays were run in different laboratories. Numbers after ± are the reported error.
FGFR3 isoform IIIc: FGFR3 isoform IIIc (unknown, UniProt Q61851)
Chain of UniProt Q61851 (whole entry, looked up): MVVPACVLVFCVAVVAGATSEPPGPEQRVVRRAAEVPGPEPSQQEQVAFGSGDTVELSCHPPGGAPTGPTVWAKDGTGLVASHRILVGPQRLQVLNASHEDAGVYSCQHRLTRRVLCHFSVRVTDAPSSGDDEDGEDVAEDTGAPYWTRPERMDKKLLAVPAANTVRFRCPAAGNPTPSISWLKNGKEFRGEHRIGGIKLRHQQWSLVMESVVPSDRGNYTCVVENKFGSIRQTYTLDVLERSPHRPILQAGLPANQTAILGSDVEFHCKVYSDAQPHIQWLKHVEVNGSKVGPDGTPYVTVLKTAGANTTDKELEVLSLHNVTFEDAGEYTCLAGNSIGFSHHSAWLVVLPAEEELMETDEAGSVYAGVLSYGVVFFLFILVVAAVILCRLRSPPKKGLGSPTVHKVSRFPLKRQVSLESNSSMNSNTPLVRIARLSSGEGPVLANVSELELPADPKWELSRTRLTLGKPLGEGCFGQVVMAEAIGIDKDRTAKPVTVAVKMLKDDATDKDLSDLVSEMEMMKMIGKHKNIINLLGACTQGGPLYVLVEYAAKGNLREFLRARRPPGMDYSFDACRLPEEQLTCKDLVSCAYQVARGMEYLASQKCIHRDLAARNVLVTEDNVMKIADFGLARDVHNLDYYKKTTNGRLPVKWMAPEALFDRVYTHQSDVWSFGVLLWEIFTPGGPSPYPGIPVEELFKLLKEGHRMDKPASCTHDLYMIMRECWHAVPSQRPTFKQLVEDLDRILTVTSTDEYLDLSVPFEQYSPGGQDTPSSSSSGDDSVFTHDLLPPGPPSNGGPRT
Mapk14: Mapk14, pT180, pY182 (Rattus norvegicus, UniProt P70618)
Chain of UniProt P70618 (whole entry, looked up): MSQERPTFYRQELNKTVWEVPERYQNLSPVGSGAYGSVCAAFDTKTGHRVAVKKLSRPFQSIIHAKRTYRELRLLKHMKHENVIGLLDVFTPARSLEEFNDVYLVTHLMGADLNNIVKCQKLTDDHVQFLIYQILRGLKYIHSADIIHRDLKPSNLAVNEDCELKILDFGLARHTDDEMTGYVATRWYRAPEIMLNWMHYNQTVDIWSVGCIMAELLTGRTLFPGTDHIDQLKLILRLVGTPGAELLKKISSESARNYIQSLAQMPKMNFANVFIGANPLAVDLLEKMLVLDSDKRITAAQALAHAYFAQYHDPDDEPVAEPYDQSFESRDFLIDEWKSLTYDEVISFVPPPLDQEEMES
B1: TIMP3 24-144 (Homo sapiens, UniProt P35625); sequence looked up; chain CTCSPSHPQDAFCNSDIVIRAKVVGKKLVKEGPFGTLVYTIKQMKMYRGFTKMPHVQYIHTEASESLCGLKLEVNKYQYLLTGRVYDGKMYTGLCNFVERWDQLTLSQRKGLNYRYHLGCN
B2: GABBR2 42-466 (Homo sapiens, UniProt O75899); sequence looked up; chain WARGAPRPPPSSPPLSIMGLMPLTKEVAKGSIGRGVLPAVELAIEQIRNESLLRPYFLDLRLYDTECDNAKGLKAFYDAIKYGPNHLMVFGGVCPSVTSIIAESLQGWNLVQLSFAATTPVLADKKKYPYFFRTVPSDNAVNPAILKLLKHYQWKRVGTLTQDVQRFSEVRNDLTGVLYGEDIEISDTESFSNDPCTSVKKLKGNDVRIILGQFDQNMAAKVFCCAYEENMYGSKYQWIIPGWYEPSWWEQVHTEANSSRCLRKNLLAAMEGYIGVDFEPLSSKQIKTISGKTPQQYEREYNNKRSGVGPSKFHGYAYDGIWVIAKTLQRAMETLHASSRHQRIQDFNYTDHTLGRIILNAMNETNFFGVTGQVVFRNGERMGTIKFTQFQDSREVKVGEYNAVADTLEIINDTIRFQGSEPPKD
B3: UGT1A9 (Homo sapiens, UniProt O60656); chain GKLLVVPMDGSHWFTMRSVVEKLILRGHEVVVVMPEVSWQLGRSLNCTVKTYSTSYTLEDLDREFKAFAHAQWKAQVRSIYSLLMGSYNDIFDLFFSNCRSLFKDKKLVEYLKESSFDAVFLDPFDNCGLIVAKYFSLPSVVFARGILCHYLEEGAQCPAPLSYVPRILLGFSDAMTFKERVRNHIMHLEEHLLCHRFFKNALEIASEILQTPVTEYDLYSHTSIWLLRTDFVLDYPKPVMPNMIFIGGINCHQGKPLPMEFEAYINASGEHGIVVFSLGSMVSEIPEKKAMAIADALGKIPQTVLWRYTGTRPSNLANNTILVKWLPQNDLLGHPMTRAFITHAGSHGVYESICNGVPMVMMPLFGDQMDNAKRMETKGAGVTLNVLEMTSEDLENALKAVINDKSYKENIMRLSSLHKDRPVEPLDLAVFWVEFVMRHKGAPHLRPAAHDLTWYQYHSLDVIGFLLAVVLTVAFITFKCCAYGYRKCLGKKGRVKKAHKSKTH
B4: RAD30/POL30 binary complex (Saccharomyces cerevisiae); Cy3 on PCNA; chain 1 MSKFTWKELIQLGSPSKAYESSLACIAHIDMNAFFAQVEQMRCGLSKEDPVVCVQWNSIIAVSYAARKYGISRMDTIQEALKKCSNLIPIHTAVFKKGEDFWQYHDGCGSWVQDPAKQISVEDHKVSLEPYRRESRKALKIFKSACDLVERASIDEVFLDLGRICFNMLMFDNEYELTGDLKLKDALSNIREAFIGGNYDINSHLPLIPEKIKSLKFEGDVFNPEGRDLITDWDDVILALGSQVCKGIRDSIKDILGYTTSCGLSSTKNVCKLASNYKKPDAQTIVKNDCLLDFLDCGKFEITSFWTLGGVLGKELIDVLDLPHENSIKHIRETWPDNAGQLKEFLDAKVKQSDYDRSTSNIDPLKTADLAEKLFKLSRGRYGLPLSSRPVVKSMMSNKNLRGKSCNSIVDCISWLEVFCAELTSRIQDLEQEYNKIVIPRTVSISLKTKSYEVYRKSGPVAYKGINFQSHELLKVGIKFVTDLDIKGKNKSYYPLTKLSMTITNFDIIDLQKTVVDMFGNQVHTFKSSAGKEDEEKTTSSKADEKTPKLECCKYQVTFTDQKALQEHADYHLALKLSEGLNGAEESSKNLSFGEKRLLFSRKRPNSQHTATPQKKQVTSSKNILSFFTRKK; chain 2 MLEAKFEEASLFKRIIDGFKDCVQLVNFQCKEDGIIAQAVDDSRVLLVSLEIGVEAFQEYRCDHPVTLGMDLTSLSKILRCGNNTDTLTLIADNTPDSIILLFEDTKKDRIAEYSLKLMDIDADFLKIEELQYDSTLSLPSSEFSKIVRDLSQLSDSINIMITKETIKFVADGDIGSGSVIIKPFVDMEHPETSIKLEMDQPVDLTFGAKYLLDIIKGSSLSDRVGIRLSSEAPALFQFDLKSGFLQFFLAPKFNDEE
B5: FGF6 (Homo sapiens, UniProt P10767); chain SPAGTRANNTLLDSRGWGTLLSRSRAGLAGEIAGVNWESGYLVGIKRQRRLYCNVGIGFHLQVLPDGRISGTHEENPYSLLEISTVERGVVSLFGVRSALFVAMNSKGRLYATPSFQEECKFRETLLPNNYNAYESDLYQGTYIALSKYGRVKRGSKVSPIMTVTHFLPRI
Chain of UniProt P12689 (whole entry, looked up): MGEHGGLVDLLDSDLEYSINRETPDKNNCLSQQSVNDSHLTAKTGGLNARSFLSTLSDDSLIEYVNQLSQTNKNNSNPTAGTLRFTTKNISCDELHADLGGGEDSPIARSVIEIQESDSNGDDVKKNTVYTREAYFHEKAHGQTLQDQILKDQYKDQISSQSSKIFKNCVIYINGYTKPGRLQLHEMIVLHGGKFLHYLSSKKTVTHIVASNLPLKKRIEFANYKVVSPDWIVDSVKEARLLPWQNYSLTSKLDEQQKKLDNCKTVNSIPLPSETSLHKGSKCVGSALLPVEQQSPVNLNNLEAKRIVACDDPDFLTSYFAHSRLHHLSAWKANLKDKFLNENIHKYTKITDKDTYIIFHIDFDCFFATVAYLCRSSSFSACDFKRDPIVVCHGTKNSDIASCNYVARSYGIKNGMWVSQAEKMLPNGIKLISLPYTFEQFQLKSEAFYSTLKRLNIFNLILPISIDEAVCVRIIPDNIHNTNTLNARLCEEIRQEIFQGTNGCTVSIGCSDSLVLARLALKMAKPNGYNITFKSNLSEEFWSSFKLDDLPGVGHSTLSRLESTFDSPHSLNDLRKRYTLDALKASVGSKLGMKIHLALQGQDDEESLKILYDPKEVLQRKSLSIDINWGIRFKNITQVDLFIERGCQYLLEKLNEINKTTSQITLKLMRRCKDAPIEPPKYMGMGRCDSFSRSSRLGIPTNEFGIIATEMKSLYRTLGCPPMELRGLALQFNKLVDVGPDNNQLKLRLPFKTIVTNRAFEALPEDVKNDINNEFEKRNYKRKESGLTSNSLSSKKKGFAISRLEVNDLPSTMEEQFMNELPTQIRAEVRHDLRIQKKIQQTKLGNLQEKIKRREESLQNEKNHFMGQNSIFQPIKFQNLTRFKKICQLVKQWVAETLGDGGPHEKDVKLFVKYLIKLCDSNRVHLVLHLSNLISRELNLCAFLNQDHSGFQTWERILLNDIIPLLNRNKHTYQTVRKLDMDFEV
Chain of UniProt P0A6A8 (whole entry, looked up): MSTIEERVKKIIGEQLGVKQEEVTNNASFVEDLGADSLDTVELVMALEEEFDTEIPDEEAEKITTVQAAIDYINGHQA
Chain of UniProt Q8SPP9 (whole entry, looked up): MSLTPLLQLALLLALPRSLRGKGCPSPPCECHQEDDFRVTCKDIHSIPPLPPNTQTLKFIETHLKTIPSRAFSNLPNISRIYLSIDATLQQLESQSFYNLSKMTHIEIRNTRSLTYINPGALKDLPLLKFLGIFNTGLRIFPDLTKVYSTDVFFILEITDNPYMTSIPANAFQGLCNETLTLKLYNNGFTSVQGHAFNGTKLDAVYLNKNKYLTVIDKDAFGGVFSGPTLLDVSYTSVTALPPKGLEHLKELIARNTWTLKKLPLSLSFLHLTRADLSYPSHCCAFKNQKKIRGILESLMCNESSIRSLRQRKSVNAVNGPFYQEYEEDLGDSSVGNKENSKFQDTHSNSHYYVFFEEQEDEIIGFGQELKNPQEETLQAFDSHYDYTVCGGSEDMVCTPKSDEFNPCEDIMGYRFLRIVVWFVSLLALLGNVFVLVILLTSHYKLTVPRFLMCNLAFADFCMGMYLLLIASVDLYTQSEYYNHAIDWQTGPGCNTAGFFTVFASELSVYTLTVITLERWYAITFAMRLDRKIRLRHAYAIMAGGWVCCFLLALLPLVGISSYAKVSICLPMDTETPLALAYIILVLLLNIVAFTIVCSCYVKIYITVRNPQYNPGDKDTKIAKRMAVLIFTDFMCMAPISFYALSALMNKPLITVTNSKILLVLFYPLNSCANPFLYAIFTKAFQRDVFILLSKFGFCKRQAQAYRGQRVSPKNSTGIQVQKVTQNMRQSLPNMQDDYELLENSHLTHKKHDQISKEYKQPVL
Chain of UniProt Q9UQ84 (whole entry, looked up): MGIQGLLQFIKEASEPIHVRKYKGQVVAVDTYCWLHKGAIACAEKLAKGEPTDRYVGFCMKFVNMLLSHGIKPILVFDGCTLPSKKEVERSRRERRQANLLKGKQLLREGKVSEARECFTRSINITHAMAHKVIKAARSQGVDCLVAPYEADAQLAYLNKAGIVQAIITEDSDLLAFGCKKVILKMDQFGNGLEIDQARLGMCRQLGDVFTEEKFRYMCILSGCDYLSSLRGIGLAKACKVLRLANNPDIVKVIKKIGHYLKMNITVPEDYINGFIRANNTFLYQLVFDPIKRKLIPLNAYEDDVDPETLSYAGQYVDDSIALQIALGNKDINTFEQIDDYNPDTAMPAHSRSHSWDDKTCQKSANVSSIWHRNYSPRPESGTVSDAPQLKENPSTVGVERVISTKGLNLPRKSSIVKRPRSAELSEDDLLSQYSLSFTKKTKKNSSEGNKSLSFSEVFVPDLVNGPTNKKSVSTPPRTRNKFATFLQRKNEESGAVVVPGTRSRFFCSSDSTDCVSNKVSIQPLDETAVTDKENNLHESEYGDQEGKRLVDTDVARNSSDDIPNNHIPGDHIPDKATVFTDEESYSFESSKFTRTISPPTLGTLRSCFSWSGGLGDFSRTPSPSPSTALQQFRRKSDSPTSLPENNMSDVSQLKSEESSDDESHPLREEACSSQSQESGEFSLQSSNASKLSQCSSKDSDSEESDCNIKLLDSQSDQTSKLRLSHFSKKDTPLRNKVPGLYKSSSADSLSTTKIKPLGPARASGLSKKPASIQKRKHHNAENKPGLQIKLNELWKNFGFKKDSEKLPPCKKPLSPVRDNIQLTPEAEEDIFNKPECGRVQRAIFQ
Chain of UniProt P11362 (whole entry, looked up): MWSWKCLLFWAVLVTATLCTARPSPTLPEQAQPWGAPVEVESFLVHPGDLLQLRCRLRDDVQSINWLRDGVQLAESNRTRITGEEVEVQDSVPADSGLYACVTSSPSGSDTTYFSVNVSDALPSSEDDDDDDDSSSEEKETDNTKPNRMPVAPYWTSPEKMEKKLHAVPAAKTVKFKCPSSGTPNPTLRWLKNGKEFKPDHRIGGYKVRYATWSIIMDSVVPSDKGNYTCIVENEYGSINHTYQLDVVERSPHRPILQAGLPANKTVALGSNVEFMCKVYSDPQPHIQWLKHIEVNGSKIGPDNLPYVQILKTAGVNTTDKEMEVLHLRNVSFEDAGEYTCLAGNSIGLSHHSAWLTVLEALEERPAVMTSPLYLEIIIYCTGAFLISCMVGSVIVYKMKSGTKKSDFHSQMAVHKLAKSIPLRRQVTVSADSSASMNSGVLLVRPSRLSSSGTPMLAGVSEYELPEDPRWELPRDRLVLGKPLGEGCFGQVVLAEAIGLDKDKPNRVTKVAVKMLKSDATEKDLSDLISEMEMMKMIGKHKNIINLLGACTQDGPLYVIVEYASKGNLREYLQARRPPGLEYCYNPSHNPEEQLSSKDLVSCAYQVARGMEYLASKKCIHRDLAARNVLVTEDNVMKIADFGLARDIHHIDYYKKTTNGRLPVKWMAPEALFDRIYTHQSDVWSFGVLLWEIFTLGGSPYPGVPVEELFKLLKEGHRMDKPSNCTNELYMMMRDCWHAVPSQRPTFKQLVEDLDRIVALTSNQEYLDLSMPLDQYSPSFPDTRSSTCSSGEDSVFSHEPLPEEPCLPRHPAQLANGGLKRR

Substance = MMP2 fragment R368A (Homo sapiens); target or system = COL1A1/COL1A2 denatured, gelatin (Homo sapiens); assay = DQ-gelatin fluorescence; conditions = 10 nM, 25 °C; how to read = higher = faster hydrolysis; endpoint = hydrolysis rate; value = 0.178 RFU/s
Substance = FGF8b (Homo sapiens); target or system = FGFR3 isoform IIIc; assay = cell proliferation, MTT; system = BaF3-FGFR3c; conditions = 20 nM, 48 h, with: chondroitin sulfate D 4.9 µg/mL; how to read = baseline: FGF 1 with heparin, higher = more proliferation; endpoint = cell proliferation; value = 41%
Substance = H-ARPCA-NH2 (PTX3 100-104, C-terminal amide (Homo sapiens); C-terminal amide); target or system = FGF2 18 kD form (Homo sapiens); assay = cell proliferation, antagonist; system = peptide, GM7373; conditions = 3-1000 µM, with: FGF2 0.55 nM; endpoint = ID50; value = 500000 nM
Substance = Ac-NWKLLAKGLLIRERLKR-NH2 (XPC 847-863 (Homo sapiens); N-acetyl; C-terminal amide); target or system = CETN1, phosphothreonine (Homo sapiens, UniProt Q12798); assay = ITC; system = peptide; conditions = pH 7.5, 30 °C, one-site model, with: CaCl2 1 mM; endpoint = ΔH; value = -34.6 kcal/mol
Substance = B1 (TIMP3 24-144); target or system = ADAMTS4 213-837 (Homo sapiens, UniProt O75173); assay = inhibitor, steady-state kinetics; conditions = 1 h, 37 °C, apparent; endpoint = Ki; value = 0.19 nM
Substance = B2 (GABBR2 42-466); target or system = GABBR1 30-459 (Homo sapiens, UniProt Q9UBS5-2); assay = SEC; endpoint = molecule per partner; value = 1
Substance = clpX fragment (Thermus thermophilus); target or system = clpP 1-194 (Thermus thermophilus, UniProt Q5SKM8); assay = peptidase activity, activator; conditions = apo; endpoint = half-maximal activation ratio; value = 6.5 ClpX6/ClpP14 ratio
Substance = fabF K65A/K69A (Escherichia coli); target or system = acpP C12-acylated 1-78, C12 acyl on 4'-phosphopantetheine (Escherichia coli, UniProt P0A6A8); assay = holo-AcpP formation, HPLC; conditions = 10 µM, with: malonyl-CoA; endpoint = condensation rate; value = 0.59 min⁻¹
Substance = YAYPGPARPASLGLGP (CDX1 D-site peptide (Homo sapiens)); target or system = Mapk14; assay = kinase activity, inhibitor, competitive kinase inhibition assay; system = peptide; conditions = with: ATP 1 mM; endpoint = IC50; value = > 100000 nM
Substance = B3 (UGT1A9); target or system = CCCc1ccc(O)cc1; assay = steady-state kinetics; conditions = pH 7.4, 37 °C; endpoint = Vmax; value = 0.002 µmol/min/mg
Substance = CXCL12 (UniProt P48061); target or system = ACKR3 (Homo sapiens, UniProt P25106); assay = CPM assay; system = micelles, bicelles, nanodiscs; endpoint = Tm; value = > 60 °C
Substance = CDC42 (Homo sapiens, UniProt P60953); target or system = WAS fragment F271C, Cys271 4-DMN label; assay = solvatochromic fluorescence; conditions = 25 °C, with: GTP-γS; how to read = baseline: Cdc42(GDP), higher = more fluorescence; endpoint = fluorescence increase; value = 32 fold
Substance = B4 (RAD30/POL30 binary complex); target or system = REV1, Cy5 label (Saccharomyces cerevisiae, UniProt P12689); assay = single-molecule TIRF; conditions = pH 7.5; endpoint = koff; value = 1.2 ± 0.1 s⁻¹
Substance = MICU2 (Homo sapiens, UniProt Q8IYU8); target or system = MICU1 C463S (Homo sapiens, UniProt Q9BPX6); assay = co-IP; system = HEK; how to read = baseline: MICU1-FLAG, higher = weaker precipitation; endpoint = relative expression needed; value = 50 fold
Substance = FGF1 (Homo sapiens, UniProt P05230); target or system = FGFR3 isoform IIIc; assay = cell proliferation, MTT; system = BaF3-FGFR3c; conditions = 20 nM, 48 h, with: 2-O desulfated heparin 4.9 µg/mL; how to read = baseline: FGF 1 with heparin, higher = more proliferation; endpoint = cell proliferation; value = 82%
Substance = NPY mature (Homo sapiens, UniProt P01303); target or system = Npy1r (Rattus norvegicus, UniProt P21555); assay = membrane hyperpolarisation, agonist, whole-cell current clamp; system = BLA pyramidal neurons, rat brain slices; endpoint = EC50; value = 404 nM
Substance = WRN fragment (Homo sapiens); target or system = EXO1 (Homo sapiens, UniProt Q9UQ84); assay = replication fork incision by EXO1, activator; conditions = 4 nM, 15 min, 37 °C; how to read = higher = more incision; endpoint = incision; value = 4 fold
Substance = YAGEQRRRRLELQLQE (MYH14 D-site peptide (Homo sapiens)); target or system = Mapk14; assay = kinase activity, inhibitor, competitive kinase inhibition assay; system = peptide; conditions = with: ATP 1 mM; endpoint = IC50; value = 35000 nM
Substance = FGF8 (Homo sapiens, UniProt P55075); target or system = FGFR3 isoform IIIc; assay = cell proliferation, MTT; system = BaF3-FGFR3c; conditions = 20 nM, 48 h, with: chondroitin sulfate E 4.9 µg/mL; how to read = baseline: FGF 1 with heparin, higher = more proliferation; endpoint = cell proliferation; value = 47%
Substance = TFPI endogenous, on cells (Homo sapiens, UniProt P10646); target or system = F3/F7 TF-fVIIa complex (Homo sapiens); assay = factor Xa generation; system = HUVEC; conditions = LPS-treated, endogenous TF, methyl-β-cyclodextrin; endpoint = maximum factor Xa generated; value = 39.6 nM
Substance = FGF2 fragment C78S/C96S, C-terminal KCK, vcMMAE on Cys (Homo sapiens); target or system = FGFR1 extracellular domain, Fc fusion 22-376 (UniProt P11362); assay = cell viability, Alamar Blue; system = BJ; conditions = 96 h; endpoint = EC50; value = 329 nM
Substance = TIMP2 N-terminal domain S4P/I35V/S68N/V71I/H97R; target or system = MMP2 (Homo sapiens, UniProt P08253); assay = fluorogenic substrate cleavage, inhibitor, enzyme inhibition assay; conditions = apparent; endpoint = Ki; value = 3.53 nM
Substance = Pcsk9 fragment (Mus musculus); target or system = Ldlr (Mus musculus, UniProt P35951); assay = ELISA; system = plasma; conditions = sham group; endpoint = bound PCSK9; value = 36.6 ng/mL
Substance = lanreotide, D-Trp, cyclic disulfide; target or system = SSTR1 L114A (Homo sapiens, UniProt P30872); assay = cAMP inhibition, FRET Epac sensor; system = HEK 293T; how to read = baseline: wild-type SSTR1, higher = greater decrease; endpoint = cAMP inhibition decrease; value = 80%
Substance = KVAHPIRPKPPSATSIPAILKALQDEWDAVMLHSFTL (PRPF19 56-92 (Homo sapiens)); target or system = PRPF19 (Homo sapiens, UniProt Q9UMS4); assay = in vitro pre-mRNA splicing, inhibitor; system = peptide, nuclear extract; endpoint = splicing inhibition; value = 21 nmol
Substance = CGA/TSHB, 125I label (Bos taurus); target or system = TSHR (Sus scrofa, UniProt Q8SPP9); assay = radioligand binding; system = solubilized porcine thyroid membrane; how to read = baseline: negative reference serum, higher = more bound tracer; endpoint = PEG-precipitable radioactivity; value = 8200 cpm
Substance = BMPR2 (Homo sapiens, UniProt Q13873); target or system = LIMK1 (Homo sapiens, UniProt P53667); assay = GST-cofilin phosphorylation; how to read = baseline: LIMK1 alone, higher = more phosphorylation; endpoint = relative kinase activity; value = 0.45
Substance = B5 (FGF6); target or system = FGFR3 isoform IIIc; assay = cell proliferation, MTT; system = BaF3-FGFR3c; conditions = 20 nM, 48 h, with: completely desulfated heparin 4.9 µg/mL; how to read = baseline: FGF 1 with heparin, higher = more proliferation; endpoint = cell proliferation; value = 5%
Substance = MENVKKATRTTTWMVPTAQ (L3MBTL3 52-70 A60R (Homo sapiens, UniProt Q96JM7-2); sequence looked up); target or system = Rbpj 53-474 (Mus musculus, UniProt P31266); assay = ITC; system = peptide; conditions = pH 6.5, 25 °C, NaCl 150 mM; endpoint = ΔH; value = -15.7 kcal/mol

For quick reference, copied from above:
Substance = MMP2 fragment R368A (Homo sapiens); target or system = COL1A1/COL1A2 denatured, gelatin (Homo sapiens); assay = DQ-gelatin fluorescence; conditions = 10 nM, 25 °C; how to read = higher = faster hydrolysis; endpoint = hydrolysis rate; value = 0.178 RFU/s
Substance = FGF8b (Homo sapiens); target or system = FGFR3 isoform IIIc; assay = cell proliferation, MTT; system = BaF3-FGFR3c; conditions = 20 nM, 48 h, with: chondroitin sulfate D 4.9 µg/mL; how to read = baseline: FGF 1 with heparin, higher = more proliferation; endpoint = cell proliferation; value = 41%
Substance = H-ARPCA-NH2 (PTX3 100-104, C-terminal amide (Homo sapiens); C-terminal amide); target or system = FGF2 18 kD form (Homo sapiens); assay = cell proliferation, antagonist; system = peptide, GM7373; conditions = 3-1000 µM, with: FGF2 0.55 nM; endpoint = ID50; value = 500000 nM
Substance = Ac-NWKLLAKGLLIRERLKR-NH2 (XPC 847-863 (Homo sapiens); N-acetyl; C-terminal amide); target or system = CETN1, phosphothreonine (Homo sapiens, UniProt Q12798); assay = ITC; system = peptide; conditions = pH 7.5, 30 °C, one-site model, with: CaCl2 1 mM; endpoint = ΔH; value = -34.6 kcal/mol
